Measured values gathered from unrelated publications.
Compare with care: the assays were run in different laboratories. “And” joins repeats or separate records; there may be more than shown. Numbers after ± are the reported error. ≈ marks a conversion by molar mass, not a printed value.
UCHL1: Ubiquitin carboxyl-terminal hydrolase isozyme L1 (UCHL1, Homo sapiens, UniProt P09936)
Sequence of UniProt P09936 (whole entry, looked up): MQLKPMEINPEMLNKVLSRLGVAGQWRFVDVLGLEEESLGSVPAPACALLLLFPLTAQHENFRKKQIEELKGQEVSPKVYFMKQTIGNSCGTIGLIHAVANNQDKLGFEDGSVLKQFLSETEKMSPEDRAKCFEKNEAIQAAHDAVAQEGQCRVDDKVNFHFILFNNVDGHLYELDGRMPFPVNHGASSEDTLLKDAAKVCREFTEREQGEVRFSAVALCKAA

Cc1ccc(C(=O)N(CCCN)[C@@H](c2oc3cc(Cl)ccc3c(=O)c2Cc2ccccc2)C(C)C)cc1 — EC90 (Toxoplasma gondii; parasite growth; HFF, bradyzoite, glutamine-induced): 7.24 µM
CN[C@H](CC(C)C)C(=O)N[C@H]1C(=O)N[C@@H](CC(N)=O)C(=O)N[C@H]2C(=O)N[C@H]3C(=O)N[C@H](C(=O)N[C@H](C(=O)O)c4cc(O)cc(O)c4-c4cc3ccc4O)[C@H](O)c3ccc(c(Cl)c3)Oc3cc2cc(c3O[C@@H]2O[C@H](CO)[C@@H](O)[C@H](O)[C@H]2O[C@H]2C[C@](C)(N)[C@H](O)[C@H](C)O2)Oc2ccc(cc2Cl)[C@H]1O — MIC50 (Streptococcus pneumoniae; penicillin-resistant, 10 isolates; serum 75%): 1 µg/mL
CCc1nc(N)nc(N)c1-c1ccc(Cl)cc1 — cured animals (Toxoplasma gondii; ME49, lethally infected mice; intraperitoneal, 5 mg/kg daily for 10 days): 90 to 100%
Cc1cn([C@H]2C[C@H](N=[N+]=[N-])[C@@H](CO)O2)c(=O)[nH]c1=O — EC50 (HIV-1; virus-induced cytopathicity, XTT; CEM-SS cells, RF; 6 days): 0.004 ± 0.0003 µM
Clc1ccc(C(c2ccc(Cl)cc2)n2cc[n+](CC(OCc3ccc(Cl)cc3Cl)c3ccc(Cl)cc3Cl)c2)cc1 (stereo not shown) — EC50 (Toxoplasma gondii; parasite growth; HFF, bradyzoite, alkaline-induced): 5.21 µM
OC(Cn1cncn1)(Cn1cncn1)c1ccc(F)cc1F — MIC (Cryptococcus neoformans; 129, RPMI 1640; 24 h, 35 °C): 50 µM
[H]/N=C(/NCCCCC)N/N=C/c1c[nH]c2ccc(OC)cc12 — EC50 (Toxoplasma gondii; parasite growth, luciferase reporter; HFF, tachyzoite; 72 h): 5.54 µM
Fc1ccccc1N/N=C/c1ccc(-c2cccc(/C=N/Nc3ccccc3F)c2)cc1 — selectivity index (Nakaseomyces glabratus; ATCC 2001; baseline: mammalian CC50 over MIC): < 0.5
CCc1nc(N)nc(N)c1-c1ccc(Cl)cc1 — parasite survival (Toxoplasma gondii; [3H]uracil incorporation; human fibroblasts, RH wild type; 50 µM): 23.2%
CCCCCCCCCCCC1NCCc2cc(O)c(O)cc21 (stereo not shown) — inhibition zone diameter (Proteus vulgaris; CPCC 160013; 40 µg per disc, 24 h, 37 °C): 11.4 mm
C[C@@H](O)[C@H]1C(=O)N2C(C(=O)O)=C(SCCN=CN)C[C@H]12 — bacterial load in thigh (Pseudomonas aeruginosa; BAA-2797, neutropenic mouse thigh infection; dose not given): 6.94 log CFU and 6.9 log CFU and 8.02 log CFU and 8.46 log CFU and 7.45 log CFU and 7.9 log CFU
CC1CS(=O)(=O)CCN1/N=C/c1ccc([N+](=O)[O-])o1 (stereo not shown) — inhibition (Trypanosoma cruzi; trypomastigote release; CHO; 5 µM): 82%
OC[C@H]1O[C@@H](O[C@@H]2[C@@H](O)[C@H](O[C@H]3[C@H](O)[C@@H](CO)OC(O)[C@@H]3O)O[C@H](CO)[C@H]2O)[C@H](O)[C@@H](O)[C@@H]1O (stereo partly shown) — -TΔS (Bacteroides uniformis; binding, ITC; pH 7.0, 25 °C, distal domain): -2.16 kcal/mol
CCN1C(=O)C(=Cc2ccc(-c3ccc(F)cc3)o2)C(C)=C(C#N)C1=O — labelling (UCHL1; covalent, intact protein LC-MS; 12.5 µM): 24.9%
NS(=O)(=O)C#Cc1ccccc1 — EC90 (Toxoplasma gondii; parasite growth; HFF, bradyzoite, glutamine-induced): 9.52 µM
O=C(C#Cc1ccc(F)c(F)c1)c1cccc(Cl)c1 — biofilm formation (Pseudomonas aeruginosa; static biofilm; PA14; 10 µM, 24 h; baseline: DMSO): 56%
CCCC(=O)OCSc1ccccc1C(=O)NCCn1cc(C(=O)NCc2cccnc2)c(=O)c2cc3c(cc21)OCO3 — EC50 (HIV-1; virus-induced cytopathic effect, inhibitor, XTT; CEM-SS, RF; 6 days): 1.51 ± 0.54 µM
C=CC[C@@H]1c2ccc(OC)c(OC)c2CN2CCc3cc4c(cc3[C@H]12)OCO4 — relative wound size (Staphylococcus aureus; P2rx7+/+ mice, skin wound infection; dose not given, day 5; baseline: day 0): 0.25 and 0.34 and 0.52 and 0.46 and 1.03 and 0.3
COc1cccc(C(O)C#Cc2ccc(O)c(OC)c2)c1 (stereo not shown) — biofilm formation (Pseudomonas aeruginosa; static biofilm; PA14; 10 µM, 24 h; baseline: DMSO): 62%
O=c1[nH]cc(F)c(=O)[nH]1 — EC90 (Toxoplasma gondii; parasite growth; HFF, bradyzoite, alkaline-induced): 10.8 µM
CO[C@H]1/C=C/O[C@@]2(C)Oc3c(C)c(O)c4c(c3C2=O)C2=NC3(CCN(CC(C)C)CC3)NC2=C(NC(=O)/C(C)=C\C=C\[C@H](C)[C@H](O)[C@@H](C)[C@@H](O)[C@@H](C)[C@H](OC(C)=O)[C@@H]1C)C4=O — IC90 (Mycobacteroides abscessus; bacterial growth; subsp. abscessus ATCC 19977): 2.57 µM
CC[C@H]1CN2CCc3cc(OC)c(OC)cc3[C@@H]2C[C@@H]1C[C@H]1NCCc2cc(OC)c(OC)cc21 — EC50 (Toxoplasma gondii; parasite growth; HFF, bradyzoite, alkaline-induced): 0.575 µM
O=C(C#Cc1ccc(F)c(F)c1)c1ccccc1Cl — mRNA level (Pseudomonas aeruginosa; RT-qPCR, measured: phzC1; biofilm cells; 10 µM, 24 h; baseline: untreated): 53%
O=c1[nH]c(NCc2ccc(Cl)c(Cl)c2)nc2ncn(CCCCCN3CCOCC3)c12 — MIC (Clostridioides difficile; agar dilution anaerobic; 3588; 48 h): 0.5 µg/mL
COc1ccc(Nc2cnnc3cc(-c4cnc(N5CCCN(C)CC5)nc4)ccc23)nc1 — EC50 (Leishmania donovani; B10R cells): > 10 µM
OC[C@H]1O[C@@H](O[C@@H]2[C@@H](O)[C@H](O[C@@H]3[C@@H](O)[C@H](O[C@@H]4[C@@H](O)[C@H](O[C@H]5[C@H](O)[C@@H](CO)OC(O)[C@@H]5O)O[C@H](CO)[C@H]4O)O[C@H](CO)[C@H]3O)O[C@H](CO)[C@H]2O)[C@H](O)[C@@H](O)[C@@H]1O (stereo partly shown) — -TΔS (Bacteroides uniformis; binding, ITC; pH 7.0, 25 °C, distal domain): 22.9 kcal/mol
COc1cc(C#C[C@@H](O)CC(C)C)ccc1O — biofilm formation (Pseudomonas aeruginosa; static biofilm; PA14; 10 µM, 24 h; baseline: DMSO): 69%
OC[C@H]1O[C@@H](O[C@@H]2[C@@H](O)[C@H](O[C@@H]3[C@@H](O)[C@H](O[C@H]4[C@H](O)[C@@H](CO)OC(O)[C@@H]4O)O[C@H](CO)[C@H]3O)O[C@H](CO)[C@H]2O)[C@H](O)[C@@H](O)[C@@H]1O (stereo partly shown) — -TΔS (Bacteroides uniformis; binding, ITC; pH 7.0, 25 °C, middle domain): -1.4 kcal/mol
N#CC(=Cc1ccc(C#N)cc1)C(=O)Nc1ccccc1Cl — labelling (UCHL1; covalent, intact protein LC-MS; 12.5 µM): 24.8%
Cc1ncc([N+](=O)[O-])n1CCO — MIC (Clostridioides difficile; agar dilution anaerobic; 3588; 48 h): 0.5 µg/mL
OC[C@H]1O[C@@H](O[C@@H]2[C@@H](O)[C@H](O[C@@H]3[C@@H](O)[C@H](O[C@@H]4[C@@H](O)[C@H](O[C@@H]5[C@@H](O)[C@H](O[C@H]6[C@H](O)[C@@H](CO)OC(O)[C@@H]6O)O[C@H](CO)[C@H]5O)O[C@H](CO)[C@H]4O)O[C@H](CO)[C@H]3O)O[C@H](CO)[C@H]2O)[C@H](O)[C@@H](O)[C@@H]1O (stereo partly shown) — ΔH (Bacteroides uniformis; binding, ITC; pH 7.0, 25 °C, middle domain): -48.8 kcal/mol
COc1cc(C#CC(=O)c2ccccc2OC)ccc1O — mRNA level (Pseudomonas aeruginosa; RT-qPCR, measured: rhlA; biofilm cells; 10 µM, 24 h; baseline: untreated): 47%
CC(C)n1ncc2c(C(=O)NCC3(C)CNC3)cc(C3CC3)nc21 — cell protection (Enterovirus D68; cytopathic effect; RD, US/MO/14-18947; 50 nM): -0.133% and 0% and -0.398%
C=C1C(=O)O[C@H]2[C@H]1CC/C(C)=C/CC[C@@]1(C)O[C@@H]21 — EC90 (Toxoplasma gondii; parasite growth; HFF, bradyzoite, glutamine-induced): 1190 µM
N=C(N)c1ccc(OCc2ccccc2COc2ccc(C(=N)N)cc2)cc1 — MIC of compound in combination (Escherichia coli; checkerboard; mcr-3 polymyxin-resistant; concentration not given, added: rifampicin): 25 µg/mL
O=C(/C=C/c1ccc(O)c(O)c1)O[C@H]1[C@H](O)C[C@](O)(C(=O)O)C[C@H]1O — IC50 (HIV-1; viral infection; TZM-bl, BaL (CCR5-tropic); 48 h): > 100 µM
O=C(O)CCC(=O)OCCN(Cc1ccc(Oc2ccc([N+](=O)[O-])cc2)cc1)C(=O)C(Cl)Cl — IC50 (Leishmania donovani; parasite growth; THP-1-derived macrophages, intracellular amastigotes; 48 h): 4.04 ± 1.62 µM
N=C(N)c1ccc(OCc2cc(Br)cc(COc3ccc(C(=N)N)cc3)c2)cc1 — MIC in combination (Escherichia coli; BW25113; concentration not given, lowest-FICI combination, added: novobiocin): 12.5 µg/mL
Nc1nc(-c2ccccc2)nc2[nH]nc(Nc3ccc(C(F)(F)F)cc3)c12 — clinical score (coxsackievirus B3; NMRI mouse, CVB3 chronic myocarditis; oral, 100 mg/kg twice daily, day 3-10, day 0; direction not given): 0
O=[N+]([O-])c1ccc(-c2nc(-c3ccc(OC4CCCC4)cc3)no2)cc1 — activity (Clostridioides difficile; spore germination; ATCC 43255; 45 µM): inactive
CCOCCn1cnc2nc(NCc3ccc(Cl)c(Cl)c3)[nH]c(=O)c21 — MIC (Clostridioides difficile; agar dilution anaerobic; 3588; 48 h): 1 µg/mL
Cc1cccc(C(=O)C#Cc2ccc(F)c(F)c2)c1 — biofilm formation (Pseudomonas aeruginosa; static biofilm; PA14; 10 µM, 24 h; baseline: DMSO): 64%
OC(Cn1cncn1)(Cn1cncn1)c1ccc(F)cc1F — MIC50 (Nakaseomyces glabratus; EUCAST; RTT_199.3; 48 h): 100 µM
O=C1c2ccccc2C(=O)c2c(NCCc3ccc(O)cc3)ccc(NCCc3ccc(O)cc3)c21 — EC50 (Toxoplasma gondii; parasite growth, luciferase reporter; HFF host cells, tachyzoites; 72 h): 3.89 µM
C[C@H]1[C@H](OC(=O)CCC(=O)O)O[C@@H]2O[C@@]3(C)CC[C@H]4[C@H](C)CC[C@@H]1[C@@]24OO3 — inhibition (hepatitis E virus; viral replication, Renilla luciferase replicon; S10-3 replicon, genotype 1; 23.43 µM, 48 h): 59.2%
COc1ccccc1C(=O)C#Cc1ccc(F)c(F)c1 — mRNA level (Pseudomonas aeruginosa; RT-qPCR, measured: lasB; biofilm cells; 10 µM, 24 h; baseline: untreated): 51%
Cc1cc(OC(C)C)ccc1C(=O)C(C)(C)NC(=O)c1sccc1C — inhibition (Botrytis cinerea; conidial germination; B05.10; 0.3 µg/mL): 30.1 ± 3.8%
OC(C#Cc1ccc(F)c(F)c1)c1ccccc1Cl (stereo not shown) — biofilm formation (Pseudomonas aeruginosa; static biofilm; PA14; 10 µM, 24 h, static; baseline: DMSO): 137%
CC(=O)NC[C@H]1CN(c2ccc(N3CCOCC3)c(F)c2)C(=O)O1 — MIC90 (Streptococcus pneumoniae; broth microdilution; penicillin-resistant isolates): 0.5 µg/mL (≈ 1.48 µM)
